Measured values of several laboratories.
Protocols differ between the studies behind these lines. ± gives the spread as reported.

With O=C(c1ccc(OCCN2CCCCC2)cc1)c1c(-c2ccc(O)cc2)sc2cc(O[C@@H]3O[C@H](C(=O)O)[C@@H](O)[C@H](O)[C@H]3O)ccc12 the transport ratio was 3.1 ± 0.2 (cholesterol-loaded Sf9 control vesicles; vesicular transport; 10 µM, 3 min, pH 7; reference: AMP control).
O=C(c1ccc(C23CC(S(F)(F)(F)(F)F)(CO2)C3)cc1)N1CCN(c2ncccn2)CC1 gave a Papp A-B of 32 ×10⁻⁶ cm/s (MDCK-LE cells).
Cc1nc2cccc(OCC(C)(C)C(=O)NC(C)C)c2c(N)c1C(=O)[O-].[Na+] — result for “relative mitotic index”: 108% (human peripheral blood lymphocytes; 125 g/mL, 20 h, without S9).
O=[N+]([O-])c1ccccc1-c1cc(CN2c3ccccc3C=Cc3ccccc32)on1 has an IC50 of greater than 30 µM (BJ; cytotoxicity).
With Cc1ccc2ccc(C)c(O)c2n1 the Papp was 4.1 ×10⁻⁶ cm/s (MDCK-II low-efflux (RRCK) cells; 1.5 h, apical to basal).
The IC50 of O=C(/C=C/c1cc(Br)ccc1F)c1ccc(O)cc1 is reported as 15.4 ± 0.32 µM (U-87 MG; cell growth, MTT; 72 h).
COc1cc(N2CCN(C(=O)C3CCCN3)CC2)ccc1Nc1ncc(Cl)c(Nc2ccccc2P(C)(C)=O)n1 (stereo not shown) has a viability of 20% (NCI-H3122; cell growth or viability, CCK-8; 0.25 µM, 48 h).
With CC[C@H](C)[C@H](NC(=O)[C@@H](NC(=O)[C@@H](N)CO)[C@@H](C)CC)C(=O)N[C@@H](CC(N)=O)C(=O)N[C@@H](Cc1ccccc1)C(=O)N[C@@H](CCC(=O)O)C(=O)N[C@@H](CCCCNC(=O)c1ccc2c(c1)C(=O)OC21c2ccc(O)cc2Oc2cc(O)ccc21)C(=O)N[C@@H](CC(C)C)C(=O)O the degradation rate was 8.9e+06 ± 100000 M⁻¹ s⁻¹ (PANC-1, microinjected single cells; proteolysis, CE-LIF; within cells; 100 µM, 2 min, 37 °C).
O=C(O)CCCOc1ccc(O)cc1-c1cc(-c2ccccc2C(F)(F)F)n(-c2ccccc2)n1 has a beat rate of 45.5 ± 2.7 min⁻¹ (human iPSC-derived cardiomyocytes; 2 µM).
COC(=O)c1ccc(/C=C/C(=O)c2ccc(O)c(OC)c2)cc1 has an IC50 of 9.63 ± 0.27 µM (U-87 MG; cell growth, MTT; 72 h).
O=C1NC2(CC2)COc2ncc(F)cc2[C@H]2COCCN2c2ccn3ncc1c3n2 gave a numerical aberrations of 0% (CHL; 10 µg/mL, 24 h, without S9).
CC1(C)C(NC(=O)C(=NOC2(C(=O)O)CC2)c2csc(N)n2)C(=O)N1OS(=O)(=O)O (stereo not shown) gave a CC50 of greater than 100 µM (HCoEpiC normal colon epithelial).
The IC50 of Clc1ccccc1-c1cc(CN2c3ccccc3C=Cc3ccccc32)on1 is reported as greater than 30 µM (BJ; cytotoxicity).
COc1c(F)c(F)c(Cn2c3cc(=O)n(Cc4cccc(Cl)n4)c(C)c3c(=O)n2-c2ccccn2)c(F)c1F has a CC50 of greater than 5 µM (HEp-2; 48 (unit not given)).
With O=C1C(=O)c2[nH]cc3c2C(=C1Cl)NCC3 the CC50 was 25 µM (HCT-116; cell growth or viability, MTT; 72 h).
O=C1c2c(O)cc(O)cc2-c2c(-c3ccc(O)cc3)oc3cc(O)cc1c23 — result for “protein level ratio”: 37.5 (LCC2 shControl cells; label-free MS proteomics, item: CYP1B1; 10 µM; reference: DMSO).
For O=C1C(=O)c2[nH]cc3c2C(=C1I)NCC3, the CC50 was 50 µM (HCT-116; cell growth or viability, MTT; 72 h).
The recovery of O=C(c1ccc(-c2cccc(C(F)(F)F)c2)cc1)N1CCN(c2ncccn2)CC1 is reported as 43% (MDCK-LE cells; time not given, apical to basolateral).
The Papp of Cc1ccc2ccc(Cl)c(O)c2n1 is reported as 4 ×10⁻⁶ cm/s (MDCK-II low-efflux (RRCK) cells; 1.5 h, apical to basal).
CCOc1ccc(-c2cc(CN3c4ccccc4C=Cc4ccccc43)on2)cc1 gave an IC50 of 47.3 µM (BJ; cell growth or viability).
Cc1ccc(C)c(/C=C/C(=O)c2ccc(O)cc2)c1 gave an IC50 of greater than 20 µM (U-87 MG; cell growth, MTT; 72 h).
COc1cc(F)ccc1Cn1c2cc(=O)n(Cc3cccc(N=[N+]=[N-])n3)c(C)c2c(=O)n1-c1ccccn1 gave a Hill slope of -4.22 (HEp-2; cytotoxicity; 48 (unit not given)).
Cc1cccnc1-c1csc(C(=O)Nc2cc(Cl)cc(NS(C)(=O)=O)c2)c1 gave a CC50 of greater than 10 µM (BJ; cell growth or viability, ATP luminescence; 10 days).
The fold induction of C=CC(=O)Nc1cc(Nc2nccc(-c3cn(C)c4ccccc34)n2)c(OCC(F)(F)F)nc1N(C)CCN(C)C is reported as 1.77 (human hepatocytes lot LTG; CYP1A2 enzyme activity, inducer; 0.1 µM; reference: DMSO).
For CC(C)N1C/C(=C\c2cc(Cl)c(O)c(Cl)c2)C(=O)/C(=C/c2cc(Cl)c(O)c(Cl)c2)C1, cytotoxicity read “not toxic” (PC-12; MTT; range over 3.75 to 60 µM, 24 and 48 h).
Cc1c2c(=O)n(-c3ccccn3)n(Cc3ccc(C4(C(F)(F)F)N=N4)cc3)c2cc(=O)n1Cc1cccc(Cl)n1 has a Hill slope of roughly -1280 (HEp-2; cytotoxicity; 48 (unit not given)).
O=C1/C(=C/c2cc(Cl)c(O)c(Cl)c2)CNC/C1=C\c1cc(Cl)c(O)c(Cl)c1 — result for cytotoxicity: “not toxic” (PC-12; MTT; range over 3.75 to 60 µM, 24 and 48 h).
With O=[N+]([O-])c1ccc(-c2cc(CN3c4ccccc4C=Cc4ccccc43)on2)cc1 the IC50 was greater than 30 µM (BJ; cytotoxicity).
COc1ccc(Cn2c3cc(=O)n(Cc4cccc(C(F)(F)F)n4)c(C)c3c(=O)n2-c2ncc(F)cc2F)cc1 has a CC50 of greater than 45 µM (HEp-2; 48 (unit not given)).
With CN(C)c1ccc(-c2cc(CN3c4ccccc4C=Cc4ccccc43)on2)cc1Cl the IC50 was greater than 30 µM (BJ; cytotoxicity).
C[N+]1=C2C=C(NCCc3c[nH]c4ccccc34)C(=O)c3[nH]cc(c32)CC1 has a CC50 of 0.3 µM (HCT-116; cell growth or viability, MTT; 72 h).
For N#Cc1ccccc1-c1cc(CN2c3ccccc3C=Cc3ccccc32)on1, the IC50 was 11.4 µM (BJ; cell growth or viability).
The viability of CN1CCCNC(=O)c2cccc(c2)C(=O)NCCCN(C)CCCNc2cccc3c2C(=O)c2cccc(c2C3=O)NCCC1 is reported as 38.2% (Ca9-22; CCK-8; 0.5 µM, 48 h; reference: untreated).
For Cc1cccc(-c2cc(CN3c4ccccc4C=Cc4ccccc43)on2)c1, the IC50 was greater than 30 µM (BJ; cytotoxicity).
CC[C@H](C)[C@H](N)C(=O)N[C@@H](CC(C)C)C(=O)N[C@@H](CCCNC(=N)N)C(=O)N[C@@H](Cc1c[nH]c2ccccc12)C(=O)N[C@@H](CO)C(=O)N[C@@H](CCCNC(=N)N)C(=O)N[C@@H](CCCCN)C(=O)N[C@@H](CC(C)C)C(=O)N1CCC[C@H]1C(=O)N[C@@H](CS)C(=O)N[C@H](C(=O)N[C@@H](CO)C(=O)O)C(C)C — result for “IC50 fold increase”: 12 fold (SUP-T1; 12G5 competition; human plasma; 2 h; reference: time 0).
Cc1c2c(=O)n(-c3ccccn3)n(Cc3ccc(N=[N+]=[N-])cc3)c2cc(=O)n1Cc1cccc(Cl)n1 has a Hill slope of roughly -1.14 (HEp-2; cytotoxicity; 48 (unit not given)).
The IC50 of Fc1cccc(-c2cc(CN3c4ccccc4C=Cc4ccccc43)on2)c1 is reported as greater than 30 µM (BJ; cytotoxicity).

Repeated from above:
With CN(C)c1ccc(-c2cc(CN3c4ccccc4C=Cc4ccccc43)on2)cc1Cl the IC50 was greater than 30 µM (BJ; cytotoxicity).
For Cc1cccc(-c2cc(CN3c4ccccc4C=Cc4ccccc43)on2)c1, the IC50 was greater than 30 µM (BJ; cytotoxicity).
The IC50 of Clc1ccccc1-c1cc(CN2c3ccccc3C=Cc3ccccc32)on1 is reported as greater than 30 µM (BJ; cytotoxicity).
